Measurements pooled from the literature.
Protocols differ between the studies behind these lines. ± marks the error that the study gave.
U2AF2: U2AF2 148-342 (Homo sapiens, UniProt P26368)
UniProt P26368, sequence (whole entry, looked up): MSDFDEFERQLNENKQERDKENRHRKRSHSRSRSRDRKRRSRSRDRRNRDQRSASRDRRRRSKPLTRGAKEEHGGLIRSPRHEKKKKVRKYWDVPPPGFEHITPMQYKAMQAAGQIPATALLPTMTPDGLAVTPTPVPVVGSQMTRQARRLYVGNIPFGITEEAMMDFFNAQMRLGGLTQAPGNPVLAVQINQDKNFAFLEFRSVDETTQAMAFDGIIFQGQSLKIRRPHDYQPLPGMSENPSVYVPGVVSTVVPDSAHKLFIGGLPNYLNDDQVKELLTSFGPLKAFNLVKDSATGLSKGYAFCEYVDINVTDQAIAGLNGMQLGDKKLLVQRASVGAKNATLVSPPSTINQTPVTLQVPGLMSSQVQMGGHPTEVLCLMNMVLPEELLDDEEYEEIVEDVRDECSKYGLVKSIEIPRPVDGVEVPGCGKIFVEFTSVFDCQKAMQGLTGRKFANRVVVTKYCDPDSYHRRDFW
B1: enzyme (Kluyveromyces lactis, UniProt Q6CSZ6); chain MSSLDINEQRALIKSAHRYISEKLEDHFSSEFLPKALVICGSGLSGISTKIADEPKPLILSYSTIPGFKVSTVPGHSGELIFGYMNGAPVVLMNGRLHSYEGHSLAETVHPIRALHLLGSINVLIVTNAAGGINASFKAGDLMCVYDHINFPGLCGFHPLRGANFDEFGPRFLATSDAYDLELRKLLFSKKKELNIERKIHEGTYSYVHGPTFESRAESRFLRLAGTDAVGMSTVPEVVTARHCGWRVLALSLITNECVVDPPASAHDENPVPIQEGKATHEEVLENSAKASKDVQELIFSVVAEI
B2: enzyme (Acinetobacter baumannii, UniProt A0A5P1UDB1); chain MFIEQDIQLGYVPFPKSRAQQYRDEGCWKSQTHFQLLASLKDRFAQRVAVIQDDKQLTYQQLYDYAIHYGTYLKQQGIRETDFVLLQSPNVIEVFIVIFGLYAIGARPVFCLHGHGSYEIENIARQSRAVGFLKLCGSANESTATDVCEEFSKPNFKLWFRESIVSRSSIEASLPQLQGVAPAFNLRAQSESEDIAFLQLSGGTTGLPKLIPRTHADYIYSIEKSVDVAGLTQDTKQLVVLPVMHNFCMSSPGFLGVFYVGGTVVLSQLTHPRVCFELIEKYQIQQVSLVPAIATLWLNAESLKDYDLSSLQVVQVGGAKLLPSLAEQIIDTLQVKLQQVYGMAEGLVNFTHLDDSDQITIQTQGKKLSHLDEIRIADQDGNALPINAIGHIQTRGPYTINGYYNLPEINQRAFTQDGFYKTGDIGYLDENLNIVVTGREKEQINRSGEKITPSEIEEFILQYPSVKDVCVIGVSDDYLGERIKAIIIPKLDDSEINLKNIRKFLISKNIAHFKIPDEIEVVADFKYTHVGKVNRQKLG
B3: SABP2 A105N (Nicotiana tabacum, UniProt Q6RYA0); chain MKEGKHFVLVHGACHGGWSWYKLKPLLEAAGHKVTALDLAASGTDLRKIEELRTLYDYTLPLMELMESLSADEKVILVGHSLGGMNLGLAMEKYPQKIYAAVFLNAFMPDSVHNSSFVLEQYNERTPAENWLDTQFLPYGSPEEPLTSMFFGPKFLAHKLYQLCSPEDLALASSLVRPSSLFMEDLSKAKYFTDERFGSVKRVYIVCTEDKGIPEEFQRWQIDNIGVTEAIEIKGADHMAMLCEPQKLCASLLEIAHKYN
B4: enzyme F206A/H226Y (Oryctolagus cuniculus, UniProt P00178); chain GRLPPGPSPLPVLGNLLQMDRKGLLRSFLRLREKYGDVFTVYLGSRPVVVLCGTDAIREALVDQAEAFSGRGKIAVVDPIFQGYGVIFANGERWRALRRFSLATMRDFGMGKRSVEERIQEEARCLVEELRKSKGALLDNTLLFHSITSNIICSIVFGKRFDYKDPVFLRLLDLFFQSASLISSFSSQVFELFPGFLKYFPGTHRQIYRNLQEINTFIGQSVEKHRATLDPSNPRDFIDVYLLRMEKDKSDPSSEFHHQNLILTVLSLFFAGTETTSTTLRYGFLLMLKYPHVTERVQKEIEQVIGSHRPPALDDRAKMPYTDAVIHEIQRLGDLIPFGVPHTVTKDTQFRGYVIPKNTEVFPVLSSALHDPRYFETPNTFNPGHFLDANGALKRNEGFMPFSLGKRICLGEGIARTELFLFFTTILQNFSIASPVPPEDIDLTPRESGVGNVPPSYQIRFLAR
B5: SCO6712 S292F/Y229F (Streptomyces coelicolor, UniProt Q9XAL8); chain AKGITARTAPAGGEVRHLKMYAEKLADGQMGYGFEKGKASVPGPLIEVNEGDTLHIEFTNTMDVRASLHVHGLDYEISSDGTAMNKSDVEPGGTRTYTWRTHKPGRRDDGTWRPGSAGYWHYHDHVVGTEHGTGGIRNGLYGPVIVRRKGDVLPDATHTIVFNDMTINNRKPHTGPDFEATVGDRVEIVMITHGEFYHTFHMHGHRWADNRTGILTGPDDPSRVIDNKITGPADSFGFQIIAGEGVGAGAWMYHCHVQFHSDMGMVGLFLVKKPDGTIPGYEPHEHGGATAKSGESGEPTGGAAAHEHEH
B6: enzyme E11H/K10H/Q8H (Geobacillus stearothermophilus, UniProt P42328); chain MKAAVVEHFHHPLKIKEVEKPTISYGEVLVRIKACGVCHTDLHAAHGDWPVKPKLPLIPGHEGVGIVEEVGPGVTHLKVGDRVGIPWLYSACGHCDYCLSGQETLCEHQKNAGYSVDGGYAEYCRAAADYVVKIPDNLSFEEAAPIFCAGVTTYKALKVTGAKPGEWVAIYGIGGLGHVAVQYAKAMGLNVVAVDIGDEKLELAKELGADLVVNPLKEDAAKFMKEKVGGVHAAVVTAVSKPAFQSAYNSIRRGGACVLVGLPPEEMPIPIFDTVLNGIKIIGSIVGTRKDLQEALQFAAEGKVKTIIEVQPLEKINEVFDRMLKGQINGRVVLTLEDK
B7: enzyme Y24A (Nitrosopumilus maritimus, UniProt A9A5X4); chain MDSQKFDSIIFDCDGVLVDITQSADKTIDKTCRYVLKEFAKIDSITIDHKIIDGFKSSGGFNDEVDLVYAAILSLYTANKLNKKPSEFIYDVISNTDKTGIRSVQSYLESIYDVSEFLSKLGSLGDRHNNPVYSIFDQFFFGPELYGKLFDKQSKFSEEGMISNDKVILSVSLLETLQKEFGKKIAVVTGRGIESIRYSLKDMMDYFDTKNSAFLEDEPRELAKPNPATLIRAIQSMESKNCLYVGDSMEDYMMAKDAAQAGHSTTFCAIVGTSTNPEDRRKLFADSGVEMILESINDIPKVLNLV
B8: ART1 (Homo sapiens, UniProt P52961); chain QSHPITRRDLFSQEIQLDMALASFDDQYAGCAAAMTAALPDLNHTEFQANQVYADSWTLASSQWQERQARWPEWSLSPTRPSPPPLGFRDEHGVALLAYTANSPLHKEFNAAVREAGRSRAHYLHHFSFKTLHFLLTEALQLLGSGQRPPRCHQVFRGVHGLRFRPAGPRATVRLGGFASASLKHVAAQQFGEDTFFGIWTCLGAPIKGYSFFPGEEEVLIPPFETFQVINASRLAQGPARIYLRALGKHSTYNCEYIKDKKCKSGPCHLDNS
B9: proB (Escherichia coli, UniProt P0A7B5); chain MSDSQTLVVKLGTSVLTGGSRRLNRAHIVELVRQCAQLHAAGHRIVIVTSGAIAAGREHLGYPELPATIASKQLLAAVGQSRLIQLWEQLFSIYGIHVGQMLLTRADMEDRERFLNARDTLRALLDNNIVPVINENDAVATAEIKVGDNDNLSALAAILAGADKLLLLTDQKGLYTADPRSNPQAELIKDVYGIDDALRAIAGDSVSGLGTGGMSTKLQAADVACRAGIDTIIAAGSKPGVIGDVMEGISVGTLFHAQATPLENRKRWIFGAPPAGEITVDEGATAAILERGSSLLPKGIKSVTGNFSRGEVIRICNLEGRDIAHGVSRYNSDALRRIAGHHSQEIDAILGYEYGPVAVHRDDMITR
B10: enzyme (Drosophila melanogaster, UniProt P18105); chain MEGAKLSAVRIAVREAPYRQFLGRREPSVVQFPPWSDGKSLIVDQNEFHFDHAFPATISQDEMYQALILPLVDKLLEGFQCTALAYGQTGTGKSYSMGMTPPGEILPEHLGILPRALGDIFERVTARQENNKDAIQVYASFIEIYNEKPFDLLGSTPHMPMVAARCQRCTCLPLHSQADLHHILELGTRNRRVRPTNMNSNSSRSHAIVTIHVKSKTHHSRMNIVDLAGSEGVRRTGHEGVARQEGVNINLGLLSINKVVMSMAAGHTVIPYRDSVLTTVLQASLTAQSYLTFLACISPHQCDLSETLSTLRFGTSAK
B11: enzyme (Rhodospirillum rubrum, UniProt Q2RSU5); chain MSDSNDDRPFRPFQSQYRWPGVDLLAYKEEGSAPFRSVTRQVLFSGNGLTGELRYFEVGPGGHSTLERHQHAHGVMILKGRGHAMVGRAVSAVAPYDLVTIPGWSWHQFRAPADEALGFLCMVNAERDKPQLPTEADLAMLRADDAVAAFLDGLAG
UniProt P13393, sequence (whole entry, looked up): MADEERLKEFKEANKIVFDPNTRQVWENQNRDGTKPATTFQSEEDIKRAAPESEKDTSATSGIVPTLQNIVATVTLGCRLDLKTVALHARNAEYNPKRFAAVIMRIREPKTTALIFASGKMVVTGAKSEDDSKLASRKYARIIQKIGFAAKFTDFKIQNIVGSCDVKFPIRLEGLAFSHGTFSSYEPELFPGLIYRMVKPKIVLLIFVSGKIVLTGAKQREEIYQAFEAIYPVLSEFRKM
UniProt O80449, sequence (whole entry, looked up): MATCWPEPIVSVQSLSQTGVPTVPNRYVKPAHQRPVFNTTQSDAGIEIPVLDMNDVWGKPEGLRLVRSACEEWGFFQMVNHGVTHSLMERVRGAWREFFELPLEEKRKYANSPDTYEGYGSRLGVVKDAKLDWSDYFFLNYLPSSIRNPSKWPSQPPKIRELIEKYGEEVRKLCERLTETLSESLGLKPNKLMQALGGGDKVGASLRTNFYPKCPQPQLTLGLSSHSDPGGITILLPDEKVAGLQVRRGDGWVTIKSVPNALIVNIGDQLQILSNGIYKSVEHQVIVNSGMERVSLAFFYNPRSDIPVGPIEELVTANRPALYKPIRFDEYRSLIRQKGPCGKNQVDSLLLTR

| Substance | target or system | test | system | setting | how to read | measurement | value |
| --- | --- | --- | --- | --- | --- | --- | --- |
| B1 (enzyme) | OC[C@H]1O[C@@H](n2cnc3c(O)ncnc32)[C@H](O)[C@@H]1O | steady-state kinetics | – | – | – | kcat | 31 ± 0.1 s⁻¹ |
| CACUAUUUU (ssRNA) | U2AF2 | sequencing of bound RNA | RNA | motif only | – | Kd | 2.21 µM |
| human HUWE1 | PP6C (human) | co-immunoprecipitation, IP-MS | CYB5R4 knockout cells | concentration not given | baseline: CYB5R4 knockout over parental | log2 fold change | 0.45 |
| B2 (enzyme) | O=C(O)c1ccccc1O | steady-state kinetics | – | pH 7.5, 37 °C, apparent | – | kcat | 0.023 ± 0.0009 s⁻¹ |
| UAUUUGUGA (ssRNA) | U2AF2 | sequencing of bound RNA | RNA | motif only | – | Kd | 3.83 µM |
| B3 (SABP2 A105N) | CC(=O)Oc1ccc([N+](=O)[O-])cc1 | steady-state kinetics | – | pH 7.2, 22 °C | – | kcat | 0.483 s⁻¹ |
| human eRF3a | CYB5R4 knockout human cells | PP4 interaction, 3xFLAG-PP4C IP-MS | – | concentration not given | baseline: CYB5R4 KO over parental | log2 fold change | -1.12 |
| B4 (enzyme F206A/H226Y) | CCOc1ccc2c(C(F)(F)F)cc(=O)oc2c1 | steady-state kinetics | – | 37 °C, added: 7-EFC | – | kcat | 0.0183 ± 0.00167 s⁻¹ |
| enzyme (UniProt A0A4R3LQ44) | O=C(O)[C@H](O)[C@@H](O)[C@@H](O)[C@H](O)CO | steady-state kinetics | – | pH 7.5, 50 °C | – | kcat | 93 ± 3 s⁻¹ |
| gdh E198G/N97F (Bacillus subtilis) | NC(=O)c1ccc[n+]([C@@H]2O[C@H](COP(=O)(O)OP(=O)(O)OC[C@H]3O[C@@H](n4cnc5c(N)ncnc54)[C@H](O)[C@@H]3O)[C@@H](O)[C@H]2O)c1 | steady-state kinetics | – | pH 7, 55 °C | – | kcat | 11.9 ± 0.298 s⁻¹ |
| enzyme (Arabidopsis thaliana, UniProt O80449) | CC/C=C\C[C@@H]1C(=O)CC[C@@H]1CC(=O)O | steady-state kinetics | – | pH 7.5, 20 °C | – | kcat | 0.0315 s⁻¹ |
| B5 (SCO6712 S292F/Y229F) | CCn1c(=NN=c2sc3cc(S(=O)(=O)O)ccc3n2CC)sc2cc(S(=O)(=O)O)ccc21 | steady-state kinetics | – | pH 7, 37 °C, NaCl 150 mM, added: O2 cosubstrate | – | kcat | 2.8 ± 0.2 s⁻¹ |
| TGGTATAAAGATCAATCGAGAATTCCTGGTATGGATCAAGTCAATCGGTCC (dsDNA; 5'-amino-C6 primer) | SPT15 full length assumed (Saccharomyces cerevisiae, UniProt P13393) | array | double-stranded DNA, one strand shown | TBP alone | – | Kd | 0.00151 ± 8e-05 µM |
| B6 (enzyme E11H/K10H/Q8H) | NC(=O)c1ccc[n+]([C@@H]2O[C@H](COP(=O)(O)OP(=O)(O)OC[C@H]3O[C@@H](n4cnc5c(N)ncnc54)[C@H](O)[C@@H]3O)[C@@H](O)[C@H]2O)c1 | steady-state kinetics | – | pH 8, apparent, cofactor varied | – | kcat | 13.31 ± 0.02 s⁻¹ |
| B7 (enzyme Y24A) | N[C@H](COP(=O)(O)O)Cc1c[nH]cn1 | steady-state kinetics | – | pH 7.8, 25 °C | – | kcat | 0.01 ± 0.001 s⁻¹ |
| B8 (ART1) | N=C(N)NCCC[C@H](N)C(=O)O | steady-state kinetics | – | pH 7.5, 25 °C, HEPES 50 mM, added: saturating NAD+ | – | kcat | 10 ± 1 s⁻¹ |
| B9 (proB) | N[C@@H](CCC(=O)O)C(=O)O | steady-state kinetics | – | pH 7, 30 °C, Hill coefficient, apparent, added: 10 mM ATP | – | kcat | 5.8 ± 2 s⁻¹ |
| enzyme (UniProt A0A097IUD8) | C=C(OP(=O)(O)O)C(=O)O | steady-state kinetics | – | pH 6, 25 °C, added: 2 mM ADP | – | kcat | 31.7 ± 1 s⁻¹ |
| B10 (enzyme) | Nc1ncnc2c1ncn2[C@@H]1O[C@H](COP(=O)(O)OP(=O)(O)OP(=O)(O)O)[C@@H](O)[C@H]1O | steady-state kinetics | – | pH 6.8, 25 °C, added: microtubules, Taxol, Mg2+ | – | kcat | 0.016 s⁻¹ |
| B11 (enzyme) | CSCC(=O)[C@@H](O)[C@H](O)COP(=O)(O)O | steady-state kinetics | – | added: DTT | – | kcat | 7.8 s⁻¹ |
| acsA D449E (Pseudomonas chlororaphis) | O=C(O)CCC(F)(F)F | steady-state kinetics | – | pH 7 | – | kcat | 0.0517 ± 0.0117 s⁻¹ |
